Measured values gathered from unrelated publications.
Every numbered part comes from another study and shows a few of its results, in no order. Positions count from the first letter of the parent shown.

Sample 1
Target: Ras GTPase-activating protein-binding protein 1, full length (G3BP1, Homo sapiens, UniProt Q13283)
UniProt Q13283, sequence (whole entry, looked up): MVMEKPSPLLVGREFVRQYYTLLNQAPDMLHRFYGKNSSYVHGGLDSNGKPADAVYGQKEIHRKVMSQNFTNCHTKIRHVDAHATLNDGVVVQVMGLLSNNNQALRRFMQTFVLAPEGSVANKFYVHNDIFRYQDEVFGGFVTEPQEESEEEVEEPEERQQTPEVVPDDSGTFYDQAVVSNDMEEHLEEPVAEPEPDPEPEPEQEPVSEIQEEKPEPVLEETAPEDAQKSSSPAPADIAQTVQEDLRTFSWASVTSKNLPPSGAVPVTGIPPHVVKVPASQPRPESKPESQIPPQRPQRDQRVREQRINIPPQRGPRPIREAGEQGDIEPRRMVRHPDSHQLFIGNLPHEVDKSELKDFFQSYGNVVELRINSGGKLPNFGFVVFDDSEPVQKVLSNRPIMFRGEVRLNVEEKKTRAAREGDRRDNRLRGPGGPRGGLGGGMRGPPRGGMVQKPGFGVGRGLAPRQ
Technique: RNA Bind-n-Seq
Form: RNA
Medium: in vitro
Concentration: 200 nM
Setting: whole 134-nt RNA, ends assumed
With: 150 mM KCl
Reference: input library
Reading: higher = stronger binding
Strand	log2 enrichment
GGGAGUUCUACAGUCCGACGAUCUGCAGCAGCGCCAGGAAUCGAGGAUGGUAAAAUGACCCAGGGGAAGAAGAAGAAACGGGCCGCGAACCGCAGUAUCAUGCUGGCCAAGAAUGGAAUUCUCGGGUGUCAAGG	-0.0769
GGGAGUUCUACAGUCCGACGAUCGUCCUGUGCUACACAUCGUAUGUACCGAAUCGGGAAAGGGUUUUUGGGAAAAAAAGGGAAAGUAUUAUGUUACGCCGUUCGGAUCUGCACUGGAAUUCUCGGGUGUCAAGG	-0.462
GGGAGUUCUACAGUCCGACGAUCUCCUCAAGUCCUGUGCUACACAUCGUAUGUACCGAAUCGGGCGGCGGCGGGGAAAGUAUUAUGUUACGCCGUUCGGAUCUGCACUUCCAGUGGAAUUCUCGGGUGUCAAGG	0.202
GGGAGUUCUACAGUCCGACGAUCUGGGAGGUGGAUUUUGUUUAUUUUUUUAGCUCCUUUCCAGGGGUGGGAAUUUUUUUUUAAUAUGUGUCAUGAAUAAAGUUGUUUUUGAAAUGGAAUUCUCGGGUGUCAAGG	-0.0705
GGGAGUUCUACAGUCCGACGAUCCAAGUCCUGUGCUACACAUCGUAUGUACCGAAUCGGGUUUGGGUUUGGGGUUUGGAAAGUAUUAUGUUACGCCGUUCGGAUCUGCACUUCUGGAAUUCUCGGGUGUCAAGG	-0.369
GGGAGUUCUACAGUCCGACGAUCGUCCUGUGCUACACAUCGUAUGUACCGAAUCGGGUUUUUGGGAAAAAAAGGGUUUGGGAAAGUAUUAUGUUACGCCGUUCGGAUCUGCACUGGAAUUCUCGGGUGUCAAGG	-0.458
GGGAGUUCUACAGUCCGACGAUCCCUGUGCUACACAUCGUAUGUACCGAAUCGGGGUUUUUGGGGUUUUUGGGGUUUUUGGGGAAAGUAUUAUGUUACGCCGUUCGGAUCUGCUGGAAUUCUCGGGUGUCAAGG	0.202
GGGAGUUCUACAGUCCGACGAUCUCCUCAAGUCCUGUGCUACACAUCGUAUGUACCGAAUCGGAGGGAGGGAGGGAAAGUAUUAUGUUACGCCGUUCGGAUCUGCACUUCCAGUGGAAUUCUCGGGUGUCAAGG	1.46
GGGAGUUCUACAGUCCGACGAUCGCAGAAAGUAAAAACAAAUGGAAAUGCUUCGGAUAGUGGCAGGGGUGGGGGUUGCUAAGGAAAGGGUGGGAUGGGAGUGGGUAAAGAGUUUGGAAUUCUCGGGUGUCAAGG	0.985
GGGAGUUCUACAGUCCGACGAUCGUCCUGUGCUACACAUCGUAUGUACCGAAUCGGGAAAAAGGGAAAAAGGAAAAAGGGGAAAGUAUUAUGUUACGCCGUUCGGAUCUGCACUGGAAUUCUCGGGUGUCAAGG	-0.587
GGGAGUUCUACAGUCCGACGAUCUCAAGUCCUGUGCUACACAUCGUAUGUACCGAAUCGGAAAGGGGAAAGGAAAGGAAAGUAUUAUGUUACGCCGUUCGGAUCUGCACUUCCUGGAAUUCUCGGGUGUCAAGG	-1.07
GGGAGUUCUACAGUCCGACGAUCCAAGUCCUGUGCUACACAUCGUAUGUACCGAAUCGGGUUUGGGAAAGGGAAAGGGAAAGUAUUAUGUUACGCCGUUCGGAUCUGCACUUCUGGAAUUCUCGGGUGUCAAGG	0.618
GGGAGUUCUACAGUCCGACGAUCCCUGUGCUACACAUCGUAUGUACCGAAUCGGGAAAAAAAGGAAAAAAAGGAAAAAAAGGGAAAGUAUUAUGUUACGCCGUUCGGAUCUGCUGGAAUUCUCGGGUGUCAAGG	-0.746
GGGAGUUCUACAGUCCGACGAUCGCAGGAAGUAAAAACAAAUGGAAAUGCUUCGGAUAGUGGCAGGGGUGGGGGUUGCUAAGGAAAGGGUGGGAUGGGAGUGGGUAAAGAGAUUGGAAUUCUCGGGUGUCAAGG	1.2

Sample 2
Target: Hepatocyte nuclear factor 3-beta, forkhead domain (FOXA2, Homo sapiens, UniProt Q9Y261, residues 142-269)
Technique: protein-binding microarray
Form: double-stranded DNA, one strand shown
Medium: in vitro
Concentration: not given
Setting: k-mer, scored over probes, only values ≥0.25
Reading: higher = stronger binding
Target sequence (chain): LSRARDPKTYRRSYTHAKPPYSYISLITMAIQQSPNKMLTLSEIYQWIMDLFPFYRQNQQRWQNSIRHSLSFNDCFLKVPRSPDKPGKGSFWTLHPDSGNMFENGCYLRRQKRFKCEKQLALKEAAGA
Strand	E-score
AAATGATA	0.335
CGTATACA	0.382
TATTCACA	0.298
CATCATTA	0.311
GTATATGA	0.268
AGTGTCAT	0.272
ACTGTATA	0.356
AACTATGA	0.255
ACCCATAT	0.297
GATGTAAA	0.271
TGTTAACA	0.405
GGTATATA	0.254
AATGTTAC	0.257
AATCACAA	0.274
AAAGTATG	0.302
CTAAATAC	0.255
ACATAGTC	0.298
ACTTTTAC	0.283
ACAAATAC	0.355
AGTTACAC	0.252
ATAATAAG	0.284
GATACATC	0.259
TAAGCATA	0.277
ATTAGTAA	0.284
CAATCATA	0.294

Sample 3
Target: Prothrombin, mature alpha-thrombin (F2, Homo sapiens, UniProt P00734)
Technique: aptamer microarray, sandwich
Form: DNA with 2'F-ANA
Medium: in vitro
Concentration: 200 nM
Setting: whole 15-mer aptamer, many near background
With: Cy3 exosite-II aptamer, 400 nM
Reading: higher = stronger binding
Strand: GGTTGGTGTGGTTGG
Modification	mean fluorescence intensity [a.u.]
2'F-ANA at 1 3 5 6 7 8 9 10 11 13	50
2'F-ANA at 1 2 3 5 8 9 10 14 15	51.2
2'F-ANA at 1 3 6 10 12 13 15	108
2'F-ANA at 1 3 5 7 8 14	182
2'F-ANA at 2 4 6 8 9 10	82
2'F-ANA at 1 2 3 4 5 7 11 13 14	82.6
2'F-ANA at 1 2 7 8 10 13 14	89
2'F-ANA at 2 3 6 12 13 15	823
2'F-ANA at 1 2 3 4 5 6 7 8 10 13 15	47.8
2'F-ANA at 1 2 4 12 14 15	59.4
2'F-ANA at 5 6 7 8 11 13	60.7
2'F-ANA at 2 9 10 11 12	162
2'F-ANA at 1 2 4 7 8 10 13	52
2'F-ANA at 2 3 4 5 11 14 15	50.4
2'F-ANA at 1 2 3 5 9 10 11 12 13 14	50.7
2'F-ANA at 3 6 8 9 11 13 15	747
2'F-ANA at 1 3 6 7 8 9 10 11 12 14 15	67.7
2'F-ANA at 1 2 3 5 7 8 9 12 14	48.4
2'F-ANA at 1 4 8 10 11 13 14 15	123
2'F-ANA at 2 5 9 12 13	131
2'F-ANA at 3 6 8 9 11 12 13	1080
2'F-ANA at 1 4 5 9 15	56.7
2'F-ANA at 2 3 4 5 6 9 10 11 12 14	49.6
2'F-ANA at 2 3 5 8 9 11 14	56

Sample 4
Target: Histone acetyltransferase KAT6A, winged helix 2, GST fusion (KAT6A, Homo sapiens, UniProt Q92794, residues 85-181)
Technique: protein binding microarray
Form: double-stranded DNA, one strand shown
Medium: in vitro
Concentration: not given
Setting: 8-mer, flanks averaged, mean of 2 arrays, mostly near background
Reference: not given
Reading: higher = stronger binding
Residues (chain): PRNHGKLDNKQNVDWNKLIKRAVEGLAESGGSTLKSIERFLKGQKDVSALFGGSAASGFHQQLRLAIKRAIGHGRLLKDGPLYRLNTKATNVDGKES
Strand	E-score
CTACAGAA	-0.0437
AGGCATTC	-0.0231
GCTCTGCA	-0.00994
CATCCCCC	-0.162
ACATACTG	-0.164
GAACTGTA	-0.0494
AGACGCTG	-0.169
AGAAAACT	0.0777
ATACAGCG	-0.0126
GCTCTGCC	0.0371
CGGTCGTC	-0.0612
AAGCAAGC	0.0706
CCTGCAGA	0.025
AGATATCG	0.0749
CCCGCGGA	0.138
ACTAGACG	0.0112
AGTTTATC	0.0765
AATTATAG	-0.115
AAGAGTCT	-0.244
ATTTCCCG	0.139
AGCTCAAC	-0.126
TACAAATA	-0.0702

Sample 5
Target: CCNE1, cyclin fold, Cln2 fusion (human)
Technique: yeast growth competition, sequencing
Medium: yeast
Setting: weak parent motif
Reference: not given
Reading: higher = stronger binding
Starting sequence: MASTL docking peptide (human); PMIAKNLMCELDE
Substitution	normalised enrichment score
PMIAKNLCCELDE [M8C]	-0.246
PAIAKNLMCELDE [M2A]	-0.217
PMIAKNLMCQLDE [E10Q]	0.0776
PMIAGNLMCELDE [K5G]	-0.253
PMIAKNLMLELDE [C9L]	0.0499
PMIAKNLMCELIE [D12I]	-0.443
PMIAKNLMCNLDE [E10N]	0.232
PMIAKNLMCELNE [D12N]	-0.0513
PLIAKNLMCELDE [M2L]	0.177
PMIAKNLYCELDE [M8Y]	-0.274
PMIAVNLMCELDE [K5V]	-0.179
PMIAKNLMCGLDE [E10G]	-0.0209
PMIAKNLMAELDE [C9A]	0.277
PMIAKNLMCEFDE [L11F]	-0.0691
PMIAANLMCELDE [K5A]	-0.0662
PCIAKNLMCELDE [M2C]	-0.196
PMIAKNLMCLLDE [E10L]	0.534
PMIAKNLMCELCE [D12C]	0.191

Sample 6
Target: Sal-like protein 4, full length isoform B (SALL4, Homo sapiens, UniProt Q9UJQ4-2, residues 1-616)
Technique: universal PBM
Form: double-stranded DNA, one strand shown
Medium: in vitro
Concentration: not given
Setting: 8-mer, flanks averaged, mean of replicates
Reading: higher = stronger binding
Strand	E-score
ACACCGTA	-0.0893
GAAAGGAA	-0.119
CTAAACGA	-0.0493
CCCACTCG	-0.228
ACCATTGA	0.116
GTGTGAAA	0.21
ATCGCAGG	-0.0633
ACGGTCCA	-0.257
ACCCAGTG	-0.259
ATGGAAGC	-0.00259
ACTACATC	0.0868
ACTAATGG	0.113
CCGGGTTA	-0.228
CGCGGGAA	-0.186
ATGTGTAG	0.174
ATTAGCAA	0.237
CGGCGTTC	-0.324
CAAATTGA	-0.0034
CGTTCGAC	-0.161
CCATGAGC	-0.272
CTTACATA	0.217
AGGATAGC	-0.0182
AGAGCTAT	-0.0055

Excerpt of the above (sample 5):
Substitution	normalised enrichment score
PMIAKNLMCELCE [D12C]	0.191
PMIAKNLMCEFDE [L11F]	-0.0691
PMIAKNLMCNLDE [E10N]	0.232
PMIAKNLMAELDE [C9A]	0.277
PMIAKNLMCELNE [D12N]	-0.0513
PMIAKNLMCELIE [D12I]	-0.443
PCIAKNLMCELDE [M2C]	-0.196
PMIAGNLMCELDE [K5G]	-0.253
PMIAKNLMCLLDE [E10L]	0.534
PMIAKNLYCELDE [M8Y]	-0.274
